Measurements of several laboratories.
“And” joins repeats or separate records; there may be more than shown. ± gives the spread as reported.

CO[C@H]1CC[C@H](N2C(=O)CNc3ncc(-c4ccc(C(C)(C)O)nc4)nc32)CC1
p4EBP1 change from baseline (flow cytometry; stimulated T cells, human, blood; 30 mg single dose, 3 h, median; reference: baseline): -44%

CCCCOc1nc(N)c2c(n1)N(Cc1cccc(CN3CCCC3)c1)CC(=O)N2
TLR7 mRNA level (human, blood; dose not given, 12 h, VOR): increased

NC(=O)c1cnc2[nH]ccc2c1N[C@@H]1[C@@H]2CC3C[C@H]1C[C@@](O)(C3)C2
change from baseline (flow cytometry, measured: CD8+ effector T cells; Japanese healthy subjects, peripheral blood; oral, 100 mg twice daily, day 7): 0.05%

C=CCn1c(=O)c2cnc(Nc3ccc(N4CCN(C)CC4)cc3)nc2n1-c1ccc2c(n1)[C@@](O)(CC)CC2
tumour growth inhibition (MDA-MB-436 xenograft, NOD/SCID mouse; oral, 60 mg/kg once daily for 38 days, day 40; reference: control): 60.2%

Cc1oncc1C(=O)Nc1ccc(C(F)(F)F)cc1
DHO concentration (measured: dihydroorotate; female CD-1 mice, pooled urine; oral, 10 mg/kg daily, 0-8 h after dose 3, 10-day dosing): 90.4 ± 4.33 µM

CC(C)[C@H](C(=O)Nc1ccc(C(=O)NO)cc1)c1ccccc1
tumour volume (volumetric MRI; human, left schwannoma; dose not given, day 64): 0.119 cm3

CC(C)NCC(O)c1ccc(O)c(O)c1 (centres unmarked)
sarcomere length (ventricular cardiomyocytes, C57BL/6 mouse; dose not given, 0.748 s): 1.72 µm

Cc1ccc([C@@H]2O[C@H](CO)[C@@H](O)[C@H](O)[C@H]2O)cc1Cc1ccc(-c2ccc(F)cc2)s1
change in fasting plasma glucose (Japanese type 2 diabetes patients; 100 mg, day 2; reference: day 1): -19 mg/dL

O=S1(=O)CC(N2CCCCC2)c2ccccc21 (centres unmarked)
IC50 (CoA-CPM signal reduction, CPM fluorescence thiol; cell-free biochemical; assay interference counter-screen, together with: CoA replacing acetyl-CoA): > 125 µM

COc1ccc(-c2cncc(N[C@@H](C)c3cccc(NC(=O)c4cncc(C)c4)c3)n2)cc1OC
delta delta Ct (measured: rno-miR-151-3p; rat SU5416/hypoxia model, lung; dose not given, unit not given; reference: SU5416/hypoxia vehicle): 0.00233

CN[C@@H]1COc2c(S(=O)(=O)NC(=O)Nc3c4c(cc5c3CCC5)CCC4)cnn2C1
inhibition (measured: IL-18; human participants, whole blood ex vivo; 150 mg single dose, 1 h, IL-18, circulating, adjusted for, together with: LPS/ATP; reference: baseline): 94.1%

O=S(=O)(c1ccc(Br)c2nsnc12)N1CCOCC1
IC50 (CoA-CPM signal reduction, CPM fluorescence thiol; cell-free biochemical; assay interference counter-screen, together with: CoA replacing acetyl-CoA): > 125 µM

[Cl-].[Cl-].[Ru+2].c1cnc2c(c1)c1nc[nH]c1c1cccnc12.c1cnc2c(c1)ccc1cccnc12.c1cnc2c(c1)ccc1cccnc12
singlet oxygen quantum yield (air-saturated acetonitrile): 56%

Fc1ccc(-c2nsc(Nc3ccccc3)n2)cc1
IC50 (CoA-CPM signal reduction, CPM fluorescence thiol; cell-free biochemical; assay interference counter-screen, together with: CoA replacing acetyl-CoA): > 125 µM

Cn1cc(Nc2nccc(-c3ccc4c(c3)CN(C3COC3)CC[C@H]4NC(=O)c3cn(C(C)(C)C)nn3)n2)cn1
pathway activation z-score (measured: D-myo-inositol (1,4,5)-trisphosphate Biosynthesis; splenic B cells, mouse; in vivo, 30 mg/kg, IgD-activated B cells; reference: vehicle, positive = activation): 1.34

O=C(COc1ccc(Cl)cc1)NC12CC(c3nnc([C@H]4C[C@@H](OC(F)(F)F)C4)o3)(C1)C2
CHAC1 mRNA change (healthy human, PBMC; 260 mg once daily, day 15, 24 h post-dose, median, together with: sodium arsenite ex vivo; reference: baseline): -75.6%

O=C(NC1CS(=O)(=O)c2ccccc21)c1cc2ccccc2s1 (centres unmarked)
IC50 (CoA-CPM signal reduction, CPM fluorescence thiol; cell-free biochemical; assay interference counter-screen, together with: CoA replacing acetyl-CoA): > 125 µM

OC(CCN1CCCCC1)(c1ccccc1)C1CC2C=CC1C2 (centres unmarked)
EEG Alpha2-power Pz-O2 (resting-state EEG; healthy elderly humans; oral, 2 mg, eyes open, LS mean): 3 µV²

O=S1(=O)C=C(Oc2ccc(F)cc2)c2ccccc21
IC50 (CoA-CPM signal reduction, CPM fluorescence thiol; cell-free biochemical; assay interference counter-screen, together with: CoA replacing acetyl-CoA): > 125 µM

O[C@H]1CCCN[C@@H]1CCCn1cnc2c(Cl)c(Cl)ccc21
maximum reduction (ELISA, measured: Pro-C3; healthy human volunteers, serum; 100 mg, day 1, multiple ascending dose): 13.7%

C=CC(=O)N1CCC(c2ccc(C(N)=O)c(-c3ccc(Oc4ccccc4)cc3)n2)CC1
PR (tumour response, Lugano classification; patients with relapsed/refractory MCL; investigator assessed, 16.4 months follow-up): 50%

CSc1ccc(C(=O)/C=C/c2cc(C)c(OC(C)(C)C(=O)O)c(C)c2)cc1
NAFLD activity score (db/db mice on MCD diet; oral, 30 mg/kg daily, 45 days; reference: untreated model): decreased

C=C(CS(=O)(=O)c1cc(C(F)(F)F)cc(C(F)(F)F)c1)C(=O)OCC
pseudo-first-order rate constant (HPLC-MS; pH 10.2, together with: 50 mM N-α-acetyl-lysine): 29.9 h⁻¹

CCCC(CCC)C(=O)Oc1cccc(C(O)CCN)c1.O=CO (centres unmarked)
ONL thickness (OCT at 500 µm from nerve head; Abca4-/-Rdh8-/- mice, photic damage; intraperitoneal, 10 mg/kg, 7 days, together with: 10,000 lx light, 30 min): 55.9 µm and 49.3 µm and 55.5 µm and 57.6 µm and 45.5 µm

COc1cc(Nc2ncc3c(n2)-c2ccc(Cl)cc2C(c2c(F)cccc2OC)=NC3)ccc1C(=O)O
median response score (female NOD/scid mice, ALL-2 B-precursor ALL xenograft; 5.2 mg/kg, 5 days weekly, score scale 0 to 10; direction not given): 8

CC(c1cc2ccccc2s1)N(O)C(N)=O (centres unmarked)
14-HDHA level (human blood; 3 µM, together with: A23187): 564 ± 88 pg/mL

N#CC[C@H](C1CCCC1)n1cc(-c2ncnc3[nH]ccc23)cn1
IL4 level difference (mouse, oxazolone dermatitis, plasma; oral, 90 mg/kg, once daily, unit not given; reference: vehicle): 20.2

CCCCc1nc2c(N)nc3ccccc3c2n1Cc1ccc(N)cc1
CD86 induction (CD86 expression, flow cytometry; CD14+ myeloid cells in PBMC, human; 100 or 1000 nM): increased

Cn1cc(Nc2nc(N)nc(-c3cccc(-n4ccc5cc(C6CC6)cc(F)c5c4=O)c3CO)n2)cn1
inhibition (CD63 upregulation, anti-IgE-induced; human, multiple ascending dose, whole blood basophils ex vivo; 150 mg twice daily, day 14, 4 h): 89.1%

Cc1cc(Nc2cc3ncccc3c(N[C@@H]3C[C@H]4CC[C@@H](C3)N4CCC#N)n2)n[nH]1
change physician global assessment (moderate-severe ulcerative colitis patients; 20 mg, day 28, Mayo subscore, unit not given; reference: baseline): 0

C[C@@H](NC(=O)N1C(=O)[C@H](Cc2ccnc(N)c2)[C@H]1C(=O)O)C1CCCCC1
PT AUEC (human; iv infusion, 1.0 mg/kg/h, 24 h, unit not given; reference: baseline): 145

O=C(O)CCC(=O)O.[2H]C([2H])([2H])Oc1cc(C)c2[nH]ccc2c1CN1CC[C@@H](C2CC2)C[C@H]1c1ccc(C(=O)O)cc1
maximum inhibition (EIA, measured: complement fragment Bb; human, plasma; 100 mg twice daily, multiple ascending dose): 51.6%

O=S1(=O)C=C(Br)c2ccccc21
IC50 (CoA-CPM signal reduction, CPM fluorescence thiol; cell-free biochemical; assay interference counter-screen, together with: CoA replacing acetyl-CoA): > 125 µM

N#Cc1ccn2c(-c3ccncc3)c(-c3ccc(F)cc3)nc2c1
log2 fold change (kinase binding, competitor, MIB/MS competition, measured: CKA1; Candida albicans cell lysate; 10 µM; reference: DMSO): 0.587

CCCCCCCCCC(=O)N[C@@H](Cc1c[nH]c2ccccc12)C(=O)N[C@H](CC(N)=O)C(=O)N[C@@H](CC(=O)O)C(=O)N[C@@H]1C(=O)NCC(=O)N[C@@H](CCCN)C(=O)N[C@@H](CC(=O)O)C(=O)N[C@H](C)C(=O)N[C@@H](CC(=O)O)C(=O)NCC(=O)N[C@H](CO)C(=O)N[C@@H]([C@H](C)CC(=O)O)C(=O)N[C@@H](CC(=O)c2ccccc2N)C(=O)O[C@@H]1C
calcein leakage (mammalian membrane liposomes; 50 µg/mL, 100 min): ~6%

C[C@H](Oc1ccc(Br)cc1-c1ccon1)C(=O)O
relative refractory period difference (muscle velocity recovery cycles; human, tibialis anterior muscle; 400 mg twice daily; reference: placebo): -0.238 ms

CC(C)C[C@H](NC(=O)[C@H](CC(C)C)NC(=O)C(C)(C)NC(=O)[C@@H](NC(=O)[C@H](CCC1CCCCC1)NC(=O)[C@@H]1CCCN1C(=O)c1ccc(F)cc1)[C@H](O)C(C)C)C(=O)NC(C)(C)C(=O)NC(C)(C)C(=O)NCCC(=O)N[C@@H](C)CN(C)C
calcein leakage (small unilamellar vesicles; concentration not given): 36.4%

C[C@H]1C[C@H]2CSC(N)=N[C@@]2(c2nc(NC(=O)c3ccc(OC(F)F)cn3)cs2)CO1
percent change from baseline (measured: Aβ1-40; healthy adults, plasma; 200 mg single dose, 6 h post-dose; reference: placebo): -84.3%

CO[C@@H]1[C@@H](OC(N)=O)[C@@H](O)[C@H](Oc2ccc3c(O)c(NC(=O)c4ccc(O)c(CC=C(C)C)c4)c(=O)oc3c2C)OC1(C)C
colony survival (Brca1 cc/cc MEFs, mouse; 200 µM): 12.3% and 28.3% and 24.6% and 9.62% and 11.8%

Cc1noc(C)c1-c1cc(C(O)(c2ccccn2)c2ccccn2)c2nc(C3CC3)[nH]c2c1
maximum induction (measured: HEXIM1 expression; human, peripheral blood; 6 mg, day 1, 1599 study): 29.1%

Cc1n[nH]c2ccc(-c3cc(OC[C@@H](N)Cc4ccccc4)cnc3-c3ccoc3)cc12
log2 fold change (kinase binding, competitor, MIB/MS competition, measured: RTK1; Candida albicans cell lysate; 1 µM; reference: DMSO): 0.118

O=C(OC(C(F)(F)F)C(F)(F)F)N1CCN(Cc2cccc(Oc3ccccc3)c2)CC1
k3 (PET blocking study; rhesus monkey, brain HIP; 0.03 mg/kg, compound pretreatment, together with: [18F]T-401 tracer): 0.19 min⁻¹

Oc1ccccc1-c1nnc(S)o1
IC50 (CoA-CPM signal reduction, CPM fluorescence thiol; cell-free biochemical; assay interference counter-screen, together with: CoA replacing acetyl-CoA): 160 ± 10 µM

CC(=O)Oc1cc2c(s1)CCN(C(C(=O)C1CC1)c1ccccc1F)C2 (centres unmarked)
patients with IPA above 90% (platelet aggregation, light transmission aggregometry; human patients, platelet-rich plasma; dose not given, 2 h, together with: TRAP 15 µM): 0%

CC(CCc1ccc(O)cc1)NCCc1ccc(O)c(O)c1 (centres unmarked)
mean arterial pressure decline (anaesthetised instrumented rat; iv infusion, 1 µg/kg/min, end of infusion; reference: baseline): 3%

O=C(O)CNC(=O)Cc1ccccc1
sarcomere length (ventricular cardiomyocytes, C57BL/6 mouse; dose not given, 0.428 s): 1.72 µm

CCO[C@H]1CCN(Cc2c(OC)cc(C)c3[nH]ccc23)[C@H](c2ccc(C(=O)O)cc2)C1
PNH RBC clone size (PNH patients, blood; oral, 25 mg then 100 mg, week 2, mean percent change; reference: baseline): 88.8%

CN(C)C(=O)c1cc2cnc(Nc3ccc(N4CCNCC4)cn3)nc2n1C1CCCC1
normalized enrichment score (RNA-seq GSEA, measured: HALLMARK_ALLOGRAFT_REJECTION; MB002 tumour; concentration not given, in vivo; reference: vehicle, direction not given): -0.986

CO[C@H]1C[C@@H]2CC[C@@H](C)[C@@](O)(O2)C(=O)C(=O)N2CCCC[C@H]2C(=O)O[C@H]([C@H](C)C[C@@H]2CC[C@@H](O)[C@H](OC)C2)CC(=O)[C@H](C)/C=C(\C)[C@@H](O)[C@@H](OC)C(=O)[C@H](C)C[C@H](C)/C=C/C=C/C=C/1C
blood glucose (oral glucose tolerance test; healthy adult horses; IV, 0.06 mg/kg, 60 min, test 4 h after single dose): 143 mg/dL

Cl.N[C@@H](CC1=CCC(O)(c2nncnn2)C=C1)C(=O)O (some centres unmarked)
kobs (iEDDA cycloaddition; aqueous DMSO 25 %; 37 °C, together with: TCO-OH 2.2 mM): 0.9 s⁻¹

Some of these lines once more:
O=C(NC1CS(=O)(=O)c2ccccc21)c1cc2ccccc2s1 (centres unmarked)
IC50 (CoA-CPM signal reduction, CPM fluorescence thiol; cell-free biochemical; assay interference counter-screen, together with: CoA replacing acetyl-CoA): > 125 µM

OC(CCN1CCCCC1)(c1ccccc1)C1CC2C=CC1C2 (centres unmarked)
EEG Alpha2-power Pz-O2 (resting-state EEG; healthy elderly humans; oral, 2 mg, eyes open, LS mean): 3 µV²

O=S1(=O)C=C(Oc2ccc(F)cc2)c2ccccc21
IC50 (CoA-CPM signal reduction, CPM fluorescence thiol; cell-free biochemical; assay interference counter-screen, together with: CoA replacing acetyl-CoA): > 125 µM

O[C@H]1CCCN[C@@H]1CCCn1cnc2c(Cl)c(Cl)ccc21
maximum reduction (ELISA, measured: Pro-C3; healthy human volunteers, serum; 100 mg, day 1, multiple ascending dose): 13.7%

C=CC(=O)N1CCC(c2ccc(C(N)=O)c(-c3ccc(Oc4ccccc4)cc3)n2)CC1
PR (tumour response, Lugano classification; patients with relapsed/refractory MCL; investigator assessed, 16.4 months follow-up): 50%

CSc1ccc(C(=O)/C=C/c2cc(C)c(OC(C)(C)C(=O)O)c(C)c2)cc1
NAFLD activity score (db/db mice on MCD diet; oral, 30 mg/kg daily, 45 days; reference: untreated model): decreased

C=C(CS(=O)(=O)c1cc(C(F)(F)F)cc(C(F)(F)F)c1)C(=O)OCC
pseudo-first-order rate constant (HPLC-MS; pH 10.2, together with: 50 mM N-α-acetyl-lysine): 29.9 h⁻¹

CCCC(CCC)C(=O)Oc1cccc(C(O)CCN)c1.O=CO (centres unmarked)
ONL thickness (OCT at 500 µm from nerve head; Abca4-/-Rdh8-/- mice, photic damage; intraperitoneal, 10 mg/kg, 7 days, together with: 10,000 lx light, 30 min): 55.9 µm and 49.3 µm and 55.5 µm and 57.6 µm and 45.5 µm
